# Measured values pooled from the literature.
# Lines come from different studies, so protocols differ. ± marks the error that the study gave.
Structure (SMILES),test,test system,conditions,Cmax
Cn1cc(C(N)=O)c(NC2C3CC4CC2CC(OS(=O)(=O)O)(C4)C3)c2ccnc1-2 (centres unmarked),,"Japanese adults, mild hepatic impairment, plasma","oral, 150 mg single dose",0.0906 µg/mL
CC(=O)N[C@H](CC(=O)O)C(=O)N[C@H](Cc1c[nH]c2ccccc12)C(=O)N[C@H](Cc1ccccc1)C(=O)N[C@H](CCCCN)C(=O)N[C@H](C)C(=O)N[C@H](Cc1ccccc1)C(=O)N[C@H](Cc1ccc(O)cc1)C(=O)N[C@H](CC(=O)O)C(=O)N[C@H](CCCCN)C(=O)N[C@@H](C(=O)N[C@H](C)C(=O)N[C@H](CCC(=O)O)C(=O)N[C@H](CCCCN)C(=O)N[C@H](Cc1ccccc1)C(=O)N[C@H](CCCCN)C(=O)N[C@H](CCC(=O)O)C(=O)N[C@H](C)C(=O)N[C@H](Cc1ccccc1)C(N)=O)C(C)C,,"statin-treated high-risk CHD men, plasma","oral, 500 mg daily, day 13, 0-8 h, mean of detected values, outlier woman excluded",0.0336 µg/mL
Cc1ccccc1-c1cc(N2CCNCC2)ncc1N(C)C(=O)C(C)(C)c1cc(C(F)(F)F)cc(C(F)(F)F)c1,,"healthy volunteers, plasma","oral, dose not given, netupitant-palonosetron fixed-dose combination",0.0441 µg/mL
O=C(O)c1cccc(S(=O)(=O)Nc2ccccc2)c1,,"patients with mild liver dysfunction, plasma","intravenous, 400 mg/m^2 belinostat, single 30 min infusion, cycle 1 day -7, mean",2.35 µg/mL
CC(C)(Sc1ccncc1-c1ccc(C#N)c2ccccc12)C(=O)OC1OC(C(=O)O)C(O)C(O)C1O (centres unmarked),,plasma,"oral, 15 mg, normal renal function, fasted",0.0257 µg/mL
CC[C@@H](C)[C@H]1NC(=O)[C@@H]([C@H](C)O)NC(=O)[C@@H](Cc2c[nH]cn2)NC(=O)CNC(=O)[C@@H](CCCNC(=N)N)NC(=O)CNC(=O)[C@@H](Cc2ccccc2)NC1=O,,"rabbit, retina-choroid","ocular, 0.5% eye drop",52 µg/g protein
NC(=O)C1(NC(=O)[C@H](Cc2ccccc2)NC(=O)[C@@H](Cc2c[nH]c3ccccc23)NC(=O)[C@@H](Cc2csc3ccccc23)NC(=O)C2CCNCC2)CCNCC1,,"healthy male volunteers, plasma","subcutaneous, 100 µg single dose",~0.004 µg/mL
O=C(O)/C=C/c1cccc(S(=O)(=O)Nc2ccccc2)c1,,"patients with mild liver dysfunction, plasma","intravenous, 400 mg/m^2 belinostat, single 30 min infusion, cycle 1 day -7, mean",1.8 µg/mL
CN(C(=O)c1ccn2ncc(-c3ccc(C(N)=O)cc3)c2c1)c1ccc(C#N)cn1,,"neonatal male Friesian-Holstein calf, plasma","oral, 5 mg/kg, days 1 and 7",0.228 µM
CN1CC[C@@H](NC(=O)Nc2ccc(C#N)cc2)C[C@@H]1c1nc2ccccc2[nH]1,refers to: total compound,"normal hepatic function, plasma","oral, 100 mg single dose, fasted, arithmetic mean",0.99 µg/mL
NC(=O)/C=C/c1cccc(S(=O)(=O)Nc2ccccc2)c1,,"patients with severe liver dysfunction, plasma","intravenous, 400 mg/m^2 belinostat, single 30 min infusion, cycle 1 day -7, mean",1.93 µg/mL
Cn1cc(C(N)=O)c(NC2C3CC4CC2CC(O)(C4)C3)c2ccnc1-2 (centres unmarked),,"Japanese adults, mild hepatic impairment, plasma","oral, 150 mg single dose",0.0535 µg/mL
CONC(=O)/C=C/c1cccc(S(=O)(=O)Nc2ccccc2)c1,,"patients with severe liver dysfunction, plasma","intravenous, 400 mg/m^2 belinostat, single 30 min infusion, cycle 1 day -7, mean",3.35 µg/mL
CCCC[C@H](NC(=O)[C@H](CC(C)C)N(C)C(=O)CNC(=O)[C@@H](NC(=O)[C@H](Cc1ccccc1)NC(=O)[C@H](CCCCN)NC(=O)[C@@H](N)CC(=O)O)C(C)C)C(N)=O,,"Göttingen minipig, plasma","subcutaneous, 100 µg/kg",0.123 µg/mL
NC(=O)c1cnc2[nH]ccc2c1NC1C2CC3CC1CC(OS(=O)(=O)O)(C3)C2 (centres unmarked),,"Japanese adults, normal hepatic function, plasma","oral, 150 mg single dose",0.641 µg/mL
CC(C)[C@H](NC(=O)CNC(=O)[C@H](CCC(N)=O)NC(=O)[C@H](C)N)C(=O)O,,"healthy volunteers, LPS endotoxaemia, plasma","intravenous, 90 mg/kg/h, 2 h infusion, geometric mean, together with: LPS 2 ng/kg",15.7 µg/mL
CN1CCN(c2cc(-c3ccccc3CO)c(N(C)C(=O)C(C)(C)c3cc(C(F)(F)F)cc(C(F)(F)F)c3)cn2)CC1,,"cancer patients, plasma","oral, dose not given, netupitant-palonosetron single dose, range of means",0.0644 to 0.0743 µg/mL
CC(C)(Sc1cc[n+]([O-])cc1-c1ccc(C#N)c2ccccc12)C(=O)OC1OC(C(=O)O)C(O)C(O)C1O (centres unmarked),,plasma,"oral, 15 mg, moderate renal impairment, fasted",0.0369 µg/mL
Cc1ccccc1-c1cc(N2CC[N+](C)([O-])CC2)ncc1N(C)C(=O)C(C)(C)c1cc(C(F)(F)F)cc(C(F)(F)F)c1,,"healthy volunteers, plasma","oral, dose not given, netupitant-palonosetron fixed-dose combination",0.166 µg/mL
COc1cc(C)c(Cc2ccc(O)cc2)cc1[C@@H]1S[C@H](CO)[C@@H](O)[C@H](O)[C@H]1O,,"Japanese T2DM patients, plasma","0.5 mg luseogliflozin, day 7, once daily",0.0013 ± 0.000196 µg/mL

# For quick reference, copied from above:
Structure (SMILES),test,test system,conditions,Cmax
NC(=O)/C=C/c1cccc(S(=O)(=O)Nc2ccccc2)c1,,"patients with severe liver dysfunction, plasma","intravenous, 400 mg/m^2 belinostat, single 30 min infusion, cycle 1 day -7, mean",1.93 µg/mL
